Measurements of several laboratories.
Lines come from different studies, so protocols differ. Values joined by “and” are separate records of one study, mostly repeats; a detail may differ. Numbers after ± are the reported error.

O=C([O-])CN1CCN(CC(=O)[O-])CCN(CC(=O)[O-])CC1.[44Sc+3] — tracer uptake (mouse, muscle; intravenous, 1 h): 0.07 %ID/g
O=C(Nc1cnccc1-c1ccc([18F])nc1)c1ccnc(NC(=O)C2CC2)c1 — SUV (FVB/NJ mice (both sexes), hippocampus; intravenous, dose not given, 120 min): 0.022
CC[C@H](C)[C@H](NC(=O)[C@@H](NC(=O)[C@H](CCCCN)NC(=O)[C@@H](NC(=O)[C@@H]1CCCN1[C@@H]1CN(C(=O)[C@@H](NC(=O)[C@@H](NC(=O)[C@@H](NC(=O)[C@@H](NC(=O)[C@@H](NC(=O)[C@@H](N)CCCCN)C(C)C)C(C)C)C(C)C)[C@@H](C)CC)[C@@H](C)O)CC[C@H]1NS(=O)(=O)c1ccc(C)cc1)[C@@H](C)O)C(C)C)C(=O)N[C@@H](CC(C)C)C(=O)N[C@@H](Cc1c[nH]cn1)C(N)=O — random coil content (circular dichroism; methanol; 125 µM, 20 °C): 17%
O=C([O-])CN1CCN(CC(=O)[O-])CCN(Cc2cccc(C(=O)[O-])n2)CC1.[44Sc+3] — tracer uptake (mouse, brain; intravenous, 1 h): 0.14 %ID/g
Cc1ccc(CN2C(=O)/C(=N\c3ccc(Cl)cc3Br)c3ccccc32)cc1 — MCHC (mouse, blood; 100 mg/kg): 323 ± 12.6 g/L
COc1cccc(OC)c1-c1cc(C(=O)NC2(C(=O)O)C3CC4CC(C3)CC2C4)nn1-c1ccc(C(=O)NCCNC(=O)[C@H](CCCCNC(=O)[C@H](CC(C)C)NC(=O)C2OC2C(=O)O)NC(=O)CN2CCN(CC(=O)[O-])CCN(CC(=O)[O-])CCN(CC(=O)[O-])CC2)cc1C(C)C.[177Lu+3] (mixture of isomers) — renal retention (HT-29 xenograft mouse, kidney; 168 h; baseline: initial uptake): 10.7 ± 1.6%
CC(C)(C)C(=O)Nc1ccc2[nH]c(CN3CCC(N(CCCN4CCOCC4)CC4OC(n5cnc6c(N)ncnc65)C(O)C4O)CC3)nc2c1 (centres unmarked) — concentration (male Sprague-Dawley rat, plasma; intravenous, 20 mg/kg, 45 min): 667 ng/mL
CCCCN1C(=O)c2cccc3c(NCCN4CCOCC4)ccc(c23)C1=O — fluorescence quantum yield (water; pH 6.0): 0.22
O=C1NC2(CC2)COc2ncc(F)cc2[C@H]2COCCN2c2ccn3ncc1c3n2 — micronucleus rate (bone marrow micronucleus test; NIH mice, male; oral, 60 mg/kg/day, 3 days): 1.05 ± 0.57 ‰
C/C(N)=N/C(=N\S(=O)(=O)c1ccc(C(F)(F)F)cc1)N1C[C@H](c2ccccc2)C(c2ccc(Cl)cc2)=N1 — oral bioavailability (cynomolgus monkey female, plasma; oral, 18 mg/kg): 26.3%
CN([O-])C(=O)CN1CCN(CC(=O)N(C)[O-])CCN(Cc2ccccn2)CC1.[89Zr+4] — intact complex (radio-TLC; human serum; 3 days, run 3): 91.6%
COc1ccc2c(c1)C(C)(C)C(/C=C/C1=C(Oc3ccc(C(=O)NCCCCOc4cc(CN(Cc5ccccn5)Cc5ccccn5)cc(CN(Cc5ccccn5)Cc5ccccn5)c4)cc3)C(=C/C=C3/N(CCCCS(=O)(=O)[O-])c4ccc(OC)cc4C3(C)C)CCC1)=[N+]2CCCCS(=O)(=O)[O-].O=[N+]([O-])[O-].O=[N+]([O-])[O-].[99Tc+].[C-]#[O+].[C-]#[O+].[C-]#[O+].[Zn+2] — tracer uptake (mouse, stomach; 12 h): 1.66 %ID/g
Cc1cc(-c2ccc(C(=O)[C@@H]3CCCC[C@H]3C(=O)Nc3cnn4c3C(=O)NCC4)cc2)[nH]n1 — cumulative radioactivity recovery (human, faeces; oral, 200 mg, 0-192 h; baseline: dose): 74.4% and 81.3% and 75.8% and 85.4% and 75.9%
CCCCN1C(=O)c2cccc3c(NCCCCCCN4CCOCC4)ccc(c23)C1=O — fluorescence quantum yield (DMF): 1
COC(=O)[C@@]1(C)C=C(C(=O)Nc2cccc(C(=O)Nc3ccc(Nc4nccc(-c5cccnc5)n4)c(C)c3)c2)C(=O)CC1 — scaled intrinsic clearance (Wistar rat male, primary hepatocytes): 294 mL/min/kg
CC[C@H](C)[C@@H](C(=O)N[C@@H](CC(C)C)C(=O)N[C@@H](CO)C(=O)N[C@@H](CO)C(=O)N[C@H](C(=O)N[C@@H](CCC(=O)O)C(=O)N[C@H](C(=O)NCC(=O)N[C@@H](CO)C(=O)N[C@@H](CC(N)=O)C(=O)N[C@H](C(=O)N1C[C@H](O)C[C@H]1C(N)=O)[C@@H](C)O)C(C)C)[C@@H](C)O)N(C)C(=O)[C@H](C)NC(=O)CN(C)C(=O)[C@H](Cc1ccccc1)NC(=O)[C@H](CO)NC(=O)[C@H](CO)NC(=O)[C@H](CCCNC(=N)N)NC(=O)[C@H](CCC(N)=O)NC(=O)[C@H](CC(C)C)NC(=O)[C@H](Cc1ccccc1)NC(=O)[C@H](Cc1c[nH]cn1)NC(=O)[C@H](C)NC(=O)[C@H](CC(C)C)NC(=O)[C@H](CCCNC(=N)N)NC(=O)[C@H](CCC(=O)O)NC(=O)[C@@H](NC(=O)[C@H](C)NC(=O)[C@@H]1CCCNC(=O)C[C@H](NC(=O)[C@H](CCCNC(=N)N)NC(=O)CC[C@H](NC(=O)CCCCCCCCCCCCCCCCCCC(=O)O)C(=O)O)C(=O)NCC(=O)N[C@@H]([C@@H](C)O)C(=O)N[C@@H](C)C(=O)N[C@@H]([C@@H](C)O)C(=O)N1)[C@@H](C)O — main peak area remaining (RP-HPLC; water; 1.0 mg/mL, 7 days, pH 6.0, 40 °C): 98%
C=C(NC(=O)c1csc(-c2nc3c(cc2O)-c2nc(cs2)C(=O)NC(C(C)O)C(=O)NC(=C(C)OC)c2nc(cs2)C(=O)NC2c4nc(cs4)C(=O)NC(COC(=O)c4c5c6c(cccc6n4O)COC(=O)C(OC4CC(C)(O)C(N(C)C)C(C)O4)C2OC5)c2nc-3cs2)n1)C(N)=O (centres unmarked) — AUC(0-t) (Sprague-Dawley rats, male, plasma; intravenous infusion, 6 mg/kg, day 7, multiple dosing): 1560 ng·h/mL
CCC(C(=O)Nc1ccc(C(N)=O)c(F)c1)n1cc(OC)c(-c2cc(Cl)ccc2-n2cc(C(F)(F)F)nn2)cc1=O (centres unmarked) — procedure-related adverse events (healthy male humans; 25 mg, ASD vs IR, fed): 0%
COc1cnc2cccc(N3CCc4c(cc(Cn5ccnc5)cc4-c4cn(C)nc4C(F)(F)F)C3=O)c2c1 — MRT(0-inf) (male CD-1 mouse, plasma; oral, 10 mg/kg): 1.4 h
Cc1cc(C(=O)Nc2nc3cccc(C)c3n2[C@H]2CCCCN(C(=O)/C=C/CN(C)C)C2)ccn1 — brain tissue binding (rat, brain tissue; dose not given): > 99%
C=CC(=O)Nc1cc(Nc2nccc(-c3cn(C)c4ccccc34)n2)c(OC)cc1N(C)CCNC — recovery (storage stability; human plasma; 10 d, -80 °C, MQC level): 101%
COCC1CN(C2CCN(c3cc(OC)c(Nc4ncc(Br)c(Nc5ccc6c(c5P(C)(C)=O)OCCO6)n4)cc3C)CC2)C1 — adverse events (first-in-human trial; human; oral, 240 mg once daily; treatment-related leading to dose suspension): 100%
CN(Cc1ccccc1)C(=O)CN1CCN(CC(=O)[O-])CCN(CC(=O)N(C)Cc2ccccc2)CC1.[44Sc+3] — tracer uptake (mouse, spleen; intravenous, 1 h): 2.62 %ID/g
COc1cccc(OC)c1-c1cc(C(=O)NC2(C(=O)O)C3CC4CC(C3)CC2C4)nn1-c1ccc(C(=O)N(C)CCCN(C)C(=O)[C@H](CCCCNC(=O)[C@H](CC(C)C)NC(=O)C2OC2C(=O)O)NC(=O)CN2CCN(CC(=O)[O-])CCN(CC(=O)[O-])CCN(CC(=O)[O-])CC2)cc1C(C)C.[177Lu+3] (mixture of isomers) — tumour-to-muscle ratio (mouse, HT-29 xenograft; 24 h post injection, biodistribution; baseline: tumour over muscle uptake): 20.7
C=CC(=O)Nc1cc(Nc2nccc(-c3c[nH]c4ccccc34)n2)c(OC)cc1N(C)CCN(C)C — recovery (storage stability; human plasma; 10 d, -80 °C, LQC level): 101%
CN([O-])C(=O)CN1CCNCCN(CC(=O)N(C)[O-])CC1.[89Zr+4] — intact complex (radio-TLC; human serum; 3 days, run 1): 100%
COc1cccc(OC)c1-c1cc(C(=O)NC2(C(=O)O)C3CC4CC(C3)CC2C4)nn1-c1ccc(C(=O)N(C)CCOCCOCCN(C)C(=O)[C@H](CCCCNC(=O)[C@H](CC(C)C)NC(=O)C2OC2C(=O)O)NC(=O)CN2CCN(CC(=O)[O-])CCN(CC(=O)[O-])CCN(CC(=O)[O-])CC2)cc1C(C)C.[177Lu+3] (mixture of isomers) — tissue uptake (mouse, HT-29 xenograft, muscle; 24 h post injection): 0.05 %ID/g
CC[C@H](C)[C@@H]1NC(=O)[C@H](Cc2ccc(O)cc2)NC(=O)CCCSC[C@@H](C(=O)N(CC(=O)N[C@@H](CC(C)C)C(=O)NCC(N)=O)Cc2ccc(F)cc2)NC(=O)[C@H](CC(N)=O)NC(=O)[C@H](CCC(N)=O)NC1=O — severe adverse events (human; intranasal, 50 µg repeated doses): 0%
CN(Cc1ccccc1)C(=O)CN1CCN(CC(=O)[O-])CCN(CC(=O)[O-])CC1.[18F-].[Sc+3] — tracer uptake (mouse, liver; intravenous, 1 h): 2.53 %ID/g
Cc1nn(-c2nc3c(F)cc(F)cc3s2)c(O)c1C(c1ccc(C(F)(F)F)cc1)c1c(C)nn(-c2nc3c(F)cc(F)cc3s2)c1O — CL/F observed (ICR mouse, plasma; oral, 50 mg/kg): 2.16 mL/min/kg and 2.35 mL/min/kg and 2.17 mL/min/kg
N#C[C@@H]1CCCN1C(=O)CNC(=O)c1ccnc2ccc(OCCCN3CCN(C(=O)CCc4ccc(O)c(CN5CCN6CC(=O)[O][Al-]([18F])([O]C(=O)C5)[O]c5ccc(CCC(=O)N7CCN(CCCOc8ccc9nccc(C(=O)NCC(=O)N%10CCC[C@H]%10C#N)c9c8)CC7)cc5C6)c4)CC3)cc12 (some centres unmarked) — radiochemical purity (radio-TLC; CD-1 mice, plasma; intravenous, 120 min post-injection): 60.6 ± 8.7%
COC1C=COC2(C)Oc3c(C)c(O)c4c(c3C2=O)C2=NC3(CCN(CC(C)C)CC3)NC2=C(NC(=O)C(C)=CC=CC(C)C(O)C(C)C(O)C(C)C(OC(=O)c2cncnc2)C1C)C4=O (centres unmarked) — elimination half-life (CD-1 mouse female, plasma; intravenous, 5 mg/kg): 7.2 h

For quick reference, copied from above:
C=CC(=O)Nc1cc(Nc2nccc(-c3c[nH]c4ccccc34)n2)c(OC)cc1N(C)CCN(C)C — recovery (storage stability; human plasma; 10 d, -80 °C, LQC level): 101%
CCC(C(=O)Nc1ccc(C(N)=O)c(F)c1)n1cc(OC)c(-c2cc(Cl)ccc2-n2cc(C(F)(F)F)nn2)cc1=O (centres unmarked) — procedure-related adverse events (healthy male humans; 25 mg, ASD vs IR, fed): 0%
COC1C=COC2(C)Oc3c(C)c(O)c4c(c3C2=O)C2=NC3(CCN(CC(C)C)CC3)NC2=C(NC(=O)C(C)=CC=CC(C)C(O)C(C)C(O)C(C)C(OC(=O)c2cncnc2)C1C)C4=O (centres unmarked) — elimination half-life (CD-1 mouse female, plasma; intravenous, 5 mg/kg): 7.2 h
